Assay results pooled from the literature.
Parts stem from different laboratories: compare values within a part only. Positions count from the first letter of the parent shown.

Block 1
Target: CCNB1, cyclin fold, Cln2 fusion (human)
Method: yeast growth competition, sequencing
Matrix: yeast
Setting: weak parent motif
Baseline: not given
Direction: higher = stronger binding
Starting sequence: SCAPER docking peptide (human); SNARRSLNFGGST
Substitution	normalised enrichment score
SNAIRSLNFGGST [R4I]	0.762
SNARRGLNFGGST [S6G]	0.576
SNADRSLNFGGST [R4D]	0.318
SNARRSLNFGGNT [S12N]	0.996
HNARRSLNFGGST [S1H]	0.289
SNVRRSLNFGGST [A3V]	0.741
CNARRSLNFGGST [S1C]	0.508
SNARRVLNFGGST [S6V]	0.366
SNARRSLNYGGST [F9Y]	0.401
SNMRRSLNFGGST [A3M]	0.606
SNARRSLNFRGST [G10R]	0.27
SNARRSLGFGGST [N8G]	-0.216
SNQRRSLNFGGST [A3Q]	-1.32
SNDRRSLNFGGST [A3D]	-0.106
SNARRSLNFGGMT [S12M]	-0.108
SNARRSLIFGGST [N8I]	1.04
SNARRSVNFGGST [L7V]	0.00201

Block 2
Target: Interferon regulatory factor 7, full length, phosphomimetic (IRF7, Homo sapiens, UniProt Q92985, residues 1-503, S101K/S471D/S472D/S475D/S476D/S477D/S483D/S484D/S487D)
Chain of UniProt Q92985 (whole entry, unmodified, looked up): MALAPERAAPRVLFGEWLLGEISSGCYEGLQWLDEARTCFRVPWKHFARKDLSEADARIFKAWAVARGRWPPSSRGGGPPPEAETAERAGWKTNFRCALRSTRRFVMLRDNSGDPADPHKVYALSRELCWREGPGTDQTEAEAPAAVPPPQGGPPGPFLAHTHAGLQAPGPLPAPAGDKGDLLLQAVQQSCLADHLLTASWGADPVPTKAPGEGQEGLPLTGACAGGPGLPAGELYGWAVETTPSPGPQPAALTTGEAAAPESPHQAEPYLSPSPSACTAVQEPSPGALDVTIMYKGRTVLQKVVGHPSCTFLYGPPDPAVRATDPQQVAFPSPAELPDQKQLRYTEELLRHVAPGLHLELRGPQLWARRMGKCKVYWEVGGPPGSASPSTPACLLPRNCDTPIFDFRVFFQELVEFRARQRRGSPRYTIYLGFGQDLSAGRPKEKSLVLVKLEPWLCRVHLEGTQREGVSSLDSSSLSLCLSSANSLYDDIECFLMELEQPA
Method: protein-binding microarray
Molecule type: double-stranded DNA, one strand shown
Matrix: in vitro
Concentration: 250 nM
Setting: 60-bp whole probe
With: salmon DNA 0.4 mg/ml
Baseline: random background probes
Direction: higher = stronger binding
Shared flanks, not repeated: GCCTAGCAC … GTCTTGATTCGCTTGACGCTGCTG
Strand	log fluorescence [z-score]
CAGGGTTTCACTTTAAATTAGTGCTAG	8.71
TTAGATATCAGTATCGTTTAGTGCTAG	0.966
TCAATTTTGTCCTCCCCTACTGTGCTA	0.384
GACGGTATAGGGACTGGGGACGTGCTA	-0.446
GACGGTATCGGGTTTCGGTACGTGCTA	4.55
TTAGGATTGCTACTGCTTTAGTGCTAG	-0.496
TTAGGTATCGGGTATCGGTGAGTGCTA	0.673
TTAGCTTTCGGGTATCGGTTAGTGCTA	1.51
TTAGGTTTCCTACTGCTTCAGTGCTAG	1.15
ATGCTACTGCATTTTTTTTTGTGCTAG	-0.633
TTAGAACTGAGAATGGATTAGTGCTAG	-0.195
TTAGATATCGGGTATCGGTTAGTGCTA	0.787
TTAGATTTCAGTAGCGATTAGTGCTAG	0.125
TTAGAACTGGGGTATCGATTAGTGCTA	0.366
GACGAACTGGGACTGGAGACGTGCTAG	-0.453
TTAGGACTGGGGTATCGGTAAGTGCTA	-0.555
TCAGCTTTTTTTTTTTTACTGTGCTAG	-0.0325
TCATATATATTATATATTACTGTGCTA	0.571
GACGGTTTCGCGACTGGGGACGTGCTA	1.48

Block 3
Target: RING finger protein unkempt homolog, zinc fingers 1-6, GST-SBP tag (UNK, Homo sapiens, UniProt Q9C0B0, residues 30-357)
Method: RNA Bind-n-Seq
Molecule type: RNA
Matrix: in vitro
Concentration: not given
Setting: RNA with constant flanks, human and mouse sites, ends assumed
Baseline: input RNA pool
Direction: higher = stronger binding
Target sequence (chain): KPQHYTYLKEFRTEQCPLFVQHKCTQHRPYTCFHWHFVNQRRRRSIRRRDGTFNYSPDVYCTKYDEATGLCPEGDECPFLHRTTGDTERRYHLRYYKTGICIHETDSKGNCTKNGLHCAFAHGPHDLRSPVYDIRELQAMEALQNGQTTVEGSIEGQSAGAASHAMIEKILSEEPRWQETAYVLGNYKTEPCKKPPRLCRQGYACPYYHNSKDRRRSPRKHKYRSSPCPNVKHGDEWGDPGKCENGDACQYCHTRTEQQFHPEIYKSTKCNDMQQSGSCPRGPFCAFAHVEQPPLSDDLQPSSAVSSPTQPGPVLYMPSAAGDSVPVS
Strand	bound/input enrichment [ratio]
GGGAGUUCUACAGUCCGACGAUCUAUAAUCUGCCAGGCUAUGUGACAGUAGGAAGGAAUGGUUUCCCCUAACAAGCCCAAUGCACUGGUCUGACUUUAUAAAUUAUUUAAUAAAAUGAACUAUUAUCAAAUAAAACGUAUGAACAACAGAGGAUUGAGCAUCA	0.968
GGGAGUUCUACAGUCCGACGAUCACCGUGCACAUUGCAUGUACUCCUCAGGCUGCCAAGGCAAUAAGCAACAAGGACCAGCAUAGCAUAUCAUAUACUUUAUCUCGAGCCCAGACGGUGGUGGUUGAAUAUACUCAUGACAGCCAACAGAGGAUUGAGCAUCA	3.2
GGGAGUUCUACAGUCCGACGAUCUCCACCAACCAGAUCUCCCUCGUGCAGUGGCCAGUGUACAUGGUGGACUAUUCCGGACUAAACGUGCAGCUUCCGGGCCCCCUUGAUUAUUAGACCUCAGAGCCGAAUCAGGACCUCAACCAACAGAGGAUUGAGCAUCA	0.486
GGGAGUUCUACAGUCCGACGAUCGAACCCACAGAAGAUUCUGGCAUUUCUCUGGAAAUGGCCGCUGUGACAGUGAAGGAGGAGUCAGAAGACCCUGAUUACUAUCAGUAUAACAUUCAAGGAAGCCAUCACUCCUCAGAAGGCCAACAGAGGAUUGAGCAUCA	0.2
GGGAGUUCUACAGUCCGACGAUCUGUUAUAUCACACCAAAGAGACCUCGAUCUUCUGCUAAAGAGUCACAUUACAAAUCUGCUGUUAGCAAGGACUUUCUCACUGAAGGAAAGGCAUCUGAUAGAACUAGCAGACAGCUGUUACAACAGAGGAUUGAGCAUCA	0.0964
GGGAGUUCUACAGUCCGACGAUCGCCACCAUGAAAACCUUCUGUGGGACCCCGGAGUACCUGGCGCCUGAGGUGCUGGAGGACAAUGACUAUGGCCGGGCCGUGGACUGGUGGGGGCUGGGUGUGGUCAUGUACGAGAUGAUGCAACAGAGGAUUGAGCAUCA	0.275
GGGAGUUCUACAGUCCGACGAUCAACCUCACAGAUGAAACAGGAGUAUCUGCUGUUCAGUUUGGAAACUCCUCUACGUCAGUAUUAGCUACGUUAGCUGCCUUAGCUGAAGCUUCUGCCCCAUUGUCCAAUUCUUCAGAAACUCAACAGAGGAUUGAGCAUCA	0.218
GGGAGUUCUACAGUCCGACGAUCUGAUGACUGCAUAGCAAACUGGCAGAUACAGUCCCCAUGGUCAGUGGCUGACCAGGGUGUCAUAGGCGCGAUCUCAAUUGCUAGAUGUGAGCACACGCUUGACAGUCUGUUUAGAAAUGUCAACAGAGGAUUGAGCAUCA	0.25

Block 4
Target: Sal-like protein 4, full length isoform A (SALL4, Homo sapiens, UniProt Q9UJQ4, residues 1-1053)
Chain of UniProt Q9UJQ4 (whole entry, looked up): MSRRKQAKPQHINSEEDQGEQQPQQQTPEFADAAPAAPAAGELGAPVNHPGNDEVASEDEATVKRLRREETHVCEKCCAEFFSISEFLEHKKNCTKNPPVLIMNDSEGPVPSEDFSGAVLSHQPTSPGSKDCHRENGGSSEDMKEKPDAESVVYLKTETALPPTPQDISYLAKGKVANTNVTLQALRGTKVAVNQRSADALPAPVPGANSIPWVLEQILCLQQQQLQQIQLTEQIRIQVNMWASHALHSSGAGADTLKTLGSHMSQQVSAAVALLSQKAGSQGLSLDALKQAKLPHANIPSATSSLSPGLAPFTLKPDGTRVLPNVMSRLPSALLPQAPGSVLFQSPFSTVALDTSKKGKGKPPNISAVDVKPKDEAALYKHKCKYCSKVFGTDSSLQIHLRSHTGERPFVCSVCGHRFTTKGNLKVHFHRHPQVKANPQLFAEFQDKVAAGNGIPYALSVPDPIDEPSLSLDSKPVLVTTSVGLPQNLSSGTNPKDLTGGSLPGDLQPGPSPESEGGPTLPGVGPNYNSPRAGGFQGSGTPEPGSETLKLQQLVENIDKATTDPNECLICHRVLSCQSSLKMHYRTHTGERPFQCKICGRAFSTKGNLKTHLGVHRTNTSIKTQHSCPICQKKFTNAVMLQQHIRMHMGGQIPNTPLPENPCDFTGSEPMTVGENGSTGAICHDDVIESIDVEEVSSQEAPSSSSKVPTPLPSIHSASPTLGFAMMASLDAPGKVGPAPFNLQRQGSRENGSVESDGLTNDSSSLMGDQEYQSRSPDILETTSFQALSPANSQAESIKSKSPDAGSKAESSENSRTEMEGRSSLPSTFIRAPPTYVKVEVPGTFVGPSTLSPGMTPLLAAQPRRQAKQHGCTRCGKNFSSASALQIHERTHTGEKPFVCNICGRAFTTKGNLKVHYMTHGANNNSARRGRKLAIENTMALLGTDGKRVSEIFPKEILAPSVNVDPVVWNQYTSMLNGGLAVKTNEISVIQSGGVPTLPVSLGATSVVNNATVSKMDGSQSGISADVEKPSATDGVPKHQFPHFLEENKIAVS
Method: universal PBM
Molecule type: double-stranded DNA, one strand shown
Matrix: in vitro
Concentration: 600 nM
Setting: 8-mer, flanks averaged, mean of replicates
Direction: higher = stronger binding
Strand	E-score
AACTATCT	0.152
CCAGACAG	-0.255
AAGTCTTC	-0.0314
AGTCCTCA	-0.0198
AAATAATA	0.424
CTGGACCC	-0.334
AGCTTTAG	-0.00186
GCCTAACA	0.00487
CCAAACAC	0.00945
TGGTCTAA	0.0439
GTTTGTTA	0.199
GAGACACA	-0.0275
AACGTTTG	0.0675
AGTTCAAA	0.132
TCGACACA	0.128
ACAGCGAG	-0.0579
CTACGTGA	-0.169
GATCGAAC	-0.097
AGGAATAT	0.319
GCGGTACC	-0.273
CTGCAATA	0.296
ACATCGCT	0.091
ATTTAGCG	0.122

A few entries again (block 4):
Strand	E-score
AGTTCAAA	0.132
TCGACACA	0.128
ACAGCGAG	-0.0579
CTACGTGA	-0.169
